Published values collected from several papers.
“And” joins repeats or separate records; there may be more than shown. ± marks the error that the study gave. Values after ≈ are worked out from the molar mass of the structure shown.
Chain of UniProt Q9Y570 (whole entry, looked up): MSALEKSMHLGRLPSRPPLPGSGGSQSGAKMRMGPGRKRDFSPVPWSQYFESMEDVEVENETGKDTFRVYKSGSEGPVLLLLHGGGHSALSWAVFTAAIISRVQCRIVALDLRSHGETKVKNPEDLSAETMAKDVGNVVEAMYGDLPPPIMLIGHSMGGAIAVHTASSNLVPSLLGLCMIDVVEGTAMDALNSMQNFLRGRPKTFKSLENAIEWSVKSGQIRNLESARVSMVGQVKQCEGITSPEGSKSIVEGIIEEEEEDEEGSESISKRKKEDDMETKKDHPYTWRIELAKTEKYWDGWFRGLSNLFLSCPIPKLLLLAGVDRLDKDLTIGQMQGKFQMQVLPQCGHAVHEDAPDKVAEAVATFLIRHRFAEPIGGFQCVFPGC
Chain of UniProt Q9GZV3 (whole entry, looked up): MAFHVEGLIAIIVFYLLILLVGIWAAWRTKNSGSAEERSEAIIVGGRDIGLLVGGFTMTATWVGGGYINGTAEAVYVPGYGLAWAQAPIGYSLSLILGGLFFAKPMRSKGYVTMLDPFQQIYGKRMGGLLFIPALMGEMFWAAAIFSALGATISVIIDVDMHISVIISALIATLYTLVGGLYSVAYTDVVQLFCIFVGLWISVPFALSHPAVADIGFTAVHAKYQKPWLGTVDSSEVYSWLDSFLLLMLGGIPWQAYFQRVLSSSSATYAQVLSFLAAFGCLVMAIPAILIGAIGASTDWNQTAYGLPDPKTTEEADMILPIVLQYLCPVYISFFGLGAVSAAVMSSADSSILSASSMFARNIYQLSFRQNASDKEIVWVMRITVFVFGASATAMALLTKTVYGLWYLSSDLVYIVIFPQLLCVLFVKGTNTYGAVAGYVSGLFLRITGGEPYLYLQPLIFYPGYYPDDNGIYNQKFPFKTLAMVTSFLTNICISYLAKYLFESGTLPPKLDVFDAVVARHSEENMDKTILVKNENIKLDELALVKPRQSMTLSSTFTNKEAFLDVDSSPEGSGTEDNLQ
Chain of UniProt Q92616 (whole entry, looked up): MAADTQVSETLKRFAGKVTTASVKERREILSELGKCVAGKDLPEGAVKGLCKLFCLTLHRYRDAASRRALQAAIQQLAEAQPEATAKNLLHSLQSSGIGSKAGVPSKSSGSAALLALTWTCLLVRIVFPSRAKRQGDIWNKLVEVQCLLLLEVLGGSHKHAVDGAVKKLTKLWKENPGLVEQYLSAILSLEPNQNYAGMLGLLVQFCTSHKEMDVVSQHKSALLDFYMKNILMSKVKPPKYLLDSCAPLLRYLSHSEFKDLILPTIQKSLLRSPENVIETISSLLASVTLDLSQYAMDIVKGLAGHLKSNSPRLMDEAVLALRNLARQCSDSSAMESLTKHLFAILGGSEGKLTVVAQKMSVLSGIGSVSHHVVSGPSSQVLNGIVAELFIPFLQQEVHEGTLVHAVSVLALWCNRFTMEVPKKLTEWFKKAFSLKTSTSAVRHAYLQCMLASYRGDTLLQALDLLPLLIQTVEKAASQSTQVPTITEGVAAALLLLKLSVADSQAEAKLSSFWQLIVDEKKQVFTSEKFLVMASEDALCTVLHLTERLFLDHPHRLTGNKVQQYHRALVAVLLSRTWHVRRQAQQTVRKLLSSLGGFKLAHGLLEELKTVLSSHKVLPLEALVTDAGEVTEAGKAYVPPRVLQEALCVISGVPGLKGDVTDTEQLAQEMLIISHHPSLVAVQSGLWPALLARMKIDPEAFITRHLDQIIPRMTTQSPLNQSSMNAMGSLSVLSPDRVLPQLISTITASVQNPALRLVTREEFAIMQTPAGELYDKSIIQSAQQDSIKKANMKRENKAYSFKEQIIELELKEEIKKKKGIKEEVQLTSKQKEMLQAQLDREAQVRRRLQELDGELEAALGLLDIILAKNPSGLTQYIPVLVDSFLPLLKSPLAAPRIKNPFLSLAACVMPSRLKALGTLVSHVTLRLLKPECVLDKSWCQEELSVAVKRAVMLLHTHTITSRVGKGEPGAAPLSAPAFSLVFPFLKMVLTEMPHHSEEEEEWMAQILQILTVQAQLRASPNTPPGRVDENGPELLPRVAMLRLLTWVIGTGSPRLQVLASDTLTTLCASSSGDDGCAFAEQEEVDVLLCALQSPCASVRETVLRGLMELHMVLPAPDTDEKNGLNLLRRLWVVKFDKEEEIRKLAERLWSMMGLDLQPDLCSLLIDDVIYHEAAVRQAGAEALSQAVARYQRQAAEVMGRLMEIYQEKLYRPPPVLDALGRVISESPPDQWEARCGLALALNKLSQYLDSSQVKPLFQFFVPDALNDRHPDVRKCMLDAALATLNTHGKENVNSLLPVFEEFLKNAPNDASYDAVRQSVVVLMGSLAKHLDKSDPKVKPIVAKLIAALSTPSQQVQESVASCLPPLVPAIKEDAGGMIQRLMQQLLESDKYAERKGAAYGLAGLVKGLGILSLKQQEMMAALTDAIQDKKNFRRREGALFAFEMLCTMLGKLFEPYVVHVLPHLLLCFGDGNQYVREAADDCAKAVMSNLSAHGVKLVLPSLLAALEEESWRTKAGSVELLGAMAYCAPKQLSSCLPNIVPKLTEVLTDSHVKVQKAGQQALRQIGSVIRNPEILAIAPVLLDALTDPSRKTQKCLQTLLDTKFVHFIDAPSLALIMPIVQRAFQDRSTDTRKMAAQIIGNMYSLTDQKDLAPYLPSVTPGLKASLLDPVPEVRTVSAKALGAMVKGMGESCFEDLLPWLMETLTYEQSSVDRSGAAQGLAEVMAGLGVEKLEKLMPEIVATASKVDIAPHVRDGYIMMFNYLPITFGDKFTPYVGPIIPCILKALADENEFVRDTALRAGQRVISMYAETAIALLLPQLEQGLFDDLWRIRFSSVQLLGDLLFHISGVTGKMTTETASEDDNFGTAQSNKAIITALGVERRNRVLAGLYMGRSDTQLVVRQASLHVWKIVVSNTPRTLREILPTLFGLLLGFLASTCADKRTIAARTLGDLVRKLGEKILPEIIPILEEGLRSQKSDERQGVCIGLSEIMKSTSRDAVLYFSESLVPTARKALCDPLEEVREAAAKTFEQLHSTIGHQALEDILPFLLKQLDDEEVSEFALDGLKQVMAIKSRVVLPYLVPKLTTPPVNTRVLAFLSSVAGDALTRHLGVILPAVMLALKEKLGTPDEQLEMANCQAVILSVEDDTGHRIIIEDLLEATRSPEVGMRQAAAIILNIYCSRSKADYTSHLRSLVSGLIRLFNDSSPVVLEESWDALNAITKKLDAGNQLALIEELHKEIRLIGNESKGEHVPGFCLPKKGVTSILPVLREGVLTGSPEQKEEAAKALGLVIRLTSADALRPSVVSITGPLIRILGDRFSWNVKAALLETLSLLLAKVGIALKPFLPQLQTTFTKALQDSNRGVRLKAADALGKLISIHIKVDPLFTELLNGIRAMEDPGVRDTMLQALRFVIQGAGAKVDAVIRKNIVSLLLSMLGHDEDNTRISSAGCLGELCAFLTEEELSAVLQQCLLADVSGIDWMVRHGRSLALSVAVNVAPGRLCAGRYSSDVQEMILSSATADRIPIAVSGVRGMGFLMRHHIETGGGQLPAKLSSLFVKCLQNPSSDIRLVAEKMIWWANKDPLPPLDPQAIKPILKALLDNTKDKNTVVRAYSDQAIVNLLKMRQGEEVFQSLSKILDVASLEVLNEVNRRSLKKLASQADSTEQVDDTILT
Chain of UniProt Q13188 (whole entry, looked up): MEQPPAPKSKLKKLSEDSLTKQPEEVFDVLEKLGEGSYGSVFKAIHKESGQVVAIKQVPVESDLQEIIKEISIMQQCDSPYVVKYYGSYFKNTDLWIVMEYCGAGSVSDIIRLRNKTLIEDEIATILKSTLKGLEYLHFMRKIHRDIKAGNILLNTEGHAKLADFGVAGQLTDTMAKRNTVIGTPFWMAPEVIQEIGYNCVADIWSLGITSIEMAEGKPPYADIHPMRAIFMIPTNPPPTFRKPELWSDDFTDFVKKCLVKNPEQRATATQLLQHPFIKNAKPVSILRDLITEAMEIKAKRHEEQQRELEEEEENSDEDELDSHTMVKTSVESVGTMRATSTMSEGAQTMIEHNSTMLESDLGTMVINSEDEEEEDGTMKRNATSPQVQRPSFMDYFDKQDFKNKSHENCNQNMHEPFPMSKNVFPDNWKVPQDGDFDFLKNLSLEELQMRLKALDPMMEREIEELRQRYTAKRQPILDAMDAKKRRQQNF

Structure (SMILES)	target or system	assay	system	conditions	how to read	measurement	result
COc1ccc(N2C(=O)N(c3c(C)cccc3Cl)Cc3cnc(Nc4ccc(C5CCN(C)CC5)cc4OC)nc32)nc1	STK3 (Homo sapiens, UniProt Q13188)	kinase activity, inhibitor		0.5 µM, MST2		inhibition	7%
CC(C)C[C@@H]1NC(=O)[C@H](CC(C)C)NC(=O)[C@H](Cc2c[nH]c3ccccc23)NC(=O)[C@H](CO)NC(=O)[C@H](Cc2c[nH]c3ccccc23)NC(=O)[C@@H]2CCCN2C(=O)[C@H](CC(C)C)NC(=O)[C@H](Cc2c[nH]cn2)NC(=O)[C@@H]2CCCN2C(=O)[C@H](CC(N)=O)NC(=O)[C@H](C)NC(=O)[C@H](Cc2ccc(O)cc2)NC(=O)[C@H](CS)NC(=O)[C@H](CCCCNC(=O)CN2CCN(CC(=O)O)CCN(CC(=O)O)CCN(CC(=O)O)CC2)NC1=O [lutetium-177 labelled]			BALB/c mice female 4T1 tumour, 4T1 tumour	intravenous, 3.7 MBq, 4 h, unblocked		tumour uptake	6.58 ± 0.98 %ID
CN[C@@H]1C[C@H]2O[C@@](C)([C@@H]1OC)n1c3ccccc3c3c4c(c5c6ccccc6n2c5c31)C(=O)NC4	iCell Cardiomyocytes (hiPSC-derived)	cellular impedance		concentration not given, 24 h	relative to: control	cell index	16.1%
O=c1cc(-c2ccccc2)oc2c(O)c(O)ccc12	induced SH-SY5Y Aβ-GFP cells			5 µM		neurite branch number	1.8 to 2.1
CCn1cnc2c(Nc3cccc(Cl)c3)nc(N[C@@H]3CCCC[C@@H]3N)nc21	HeLa expressing Ub(G76V)-GFP	Ub(G76V)-GFP degradation, cycloheximide chase		12 µM		inhibition	72%
C/C=C(/C)C(=O)O[C@H]1C(C)=C2[C@H]([C@@H]1OC(=O)CCCCCCC)[C@@](C)(OC(C)=O)C[C@H](OC(=O)CCC)[C@@]1(O)[C@H]2OC(=O)[C@@]1(C)O	HEK-293T	RNA-seq GSEA, measured: Hallmark MYC targets V2		500 nM, 6 h	direction not given	normalized enrichment score	-0.94
Oc1ccc(C(c2ccc(O)cc2)(C(F)(F)F)C(F)(F)F)cc1	HepG2 spheroids	Hoechst flow cytometry		1 µM, 96 h		G1 phase cells	75.3 ± 6.83%
O=C(c1ccc(Cl)cc1)N1CCN2C(=O)N(OC(=O)N3CCOc4ccccc43)C(=O)C2C1 (stereo not shown)	Protein phosphatase methylesterase 1 (Homo sapiens, UniProt Q9Y570)	enzyme activity, inhibitor, MS-based ABPP	SW-620 conditioned medium	10 µM, 1 h, 37 °C	relative to: compound over DMSO, lower = stronger inhibition	median ratio	1.24
CN1CCN(S(=O)(=O)c2cc([N+](=O)[O-])ccc2N(CCOS(C)(=O)=O)CCOS(C)(=O)=O)CC1	sample E T-ALL PDX cells	cell viability	ex vivo			IC50	12.7 nM
C[C@@]1(C(=O)O)CC[C@]2(C)CC[C@]3(C)C4=CC(=O)c5c(cc(O)c(O)c5C=O)[C@]4(C)CC[C@@]3(C)[C@@H]2C1	BT-16	cell viability, MTT		10 µM, 72 h		inhibition	94.1%
CC[C@H](C)[C@H](NC(=O)[C@H](C)NC(=O)[C@H](CCCCN)NC(=O)[C@H](CC(C)C)NC(=O)[C@H](C)NC(=O)[C@@H](NC(=O)[C@H](Cc1c[nH]cn1)NC(=O)[C@H](CC(C)C)NC(=O)[C@@H](NC(=O)[C@@H](NC(=O)[C@H](CCCCN)NC(=O)[C@@H](NC(=O)[C@H](C)NC(=O)[C@H](CCCCN)NC(=O)[C@H](CCCCN)NC(=O)[C@H](Cc1ccccc1)NC(=O)[C@@H](NC(=O)[C@H](CCCCN)NC(=O)[C@H](CC(C)C)NC(=O)[C@H](Cc1ccccc1)NC(=O)[C@H](CO)NC(=O)[C@H](CCCCN)NC(=O)[C@H](Cc1c[nH]c2ccccc12)NC(=O)[C@@H](N)CCCCN)[C@@H](C)O)C(C)C)[C@@H](C)O)C(C)C)[C@@H](C)O)C(=O)N[C@@H](CO)C(=O)N[C@@H](CO)C(=O)N[C@@H](CS)C(N)=O	human red blood cells			pH 7.4	relative to: Triton X-100	EC50	10000 nM
COc1ccc2c(c1)[nH]c1c(C)nccc12	DU-145	bisulfite pyrosequencing, measured: RASSF1A promoter CpG site 21		concentration not given	relative to: vehicle	methylation reduction	1.74%
Nc1ncnc2c1ncn2[C@@H]1O[C@@H]2COP(=O)(O)O[C@H]3[C@@H](O)[C@H](n4cnc5c(=O)[nH]cnc54)O[C@@H]3COP(=O)(O)O[C@H]2[C@H]1O	HFF-1	RNA sequencing, measured: Collagen formation		downregulated pathway	relative to: Zika virus alone	pathway fold enrichment	10.4
c1ccc2c(c1)OCC(C1=NCCN1)O2 (stereo not shown)	human iPSC-derived cardiomyocytes	MyBP-C/MYH ratio, plate-normalised SD score		concentration not given, primary screen	direction not given	activity score	5.7
CC[C@H](C)[C@H](NC(=O)[C@H](Cc1ccccc1)NC(=O)[C@H](CCC(=O)O)NC(=O)[C@H](CCCNC(=N)N)NC(=O)[C@H](C)NC(=O)[C@H](C)NC(=O)[C@H](CCC(N)=O)NC(=O)[C@H](CCC(=O)O)NC(=O)[C@H](CCC(=O)O)NC(=O)[C@H](CC(C)C)NC(=O)[C@H](Cc1ccc(O)cc1)NC(=O)[C@H](CO)NC(=O)[C@H](CO)NC(=O)[C@@H](NC(=O)[C@H](CC(=O)O)NC(=O)[C@H](CO)NC(=O)[C@@H](NC(=O)[C@H](Cc1ccccc1)NC(=O)[C@@H](NC(=O)CNC(=O)[C@H](CCC(=O)O)NC(=O)[C@H](C)NC(=O)CCc1c[nH]cn1)[C@@H](C)O)[C@@H](C)O)C(C)C)C(=O)N[C@@H](C)C(=O)N[C@@H](Cc1c[nH]c2ccccc12)C(=O)N[C@@H](CC(C)C)C(=O)N[C@H](C(=O)N[C@@H](CCCNC(=N)N)C(=O)NCC(=O)N[C@@H](CCCNC(=N)N)C(=O)N[C@@H](CCCCNC(=O)COCCOCCNC(=O)COCCOCCNC(=O)CC[C@H](NC(=O)CCCCCCCCCCCCCCCCC(=O)O)C(=O)O)C(=O)NCC(=O)NCC(=O)N[C@@H](CO)C(=O)N[C@@H](CCCCNc1c(NCCCCCN(O)C(=O)CCC(=O)NCCCCCN(O)C(=O)CCC(=O)NCCCCCN(O)C(C)=O)c(=O)c1=O)C(=O)O)C(C)C [zirconium-89 labelled]			rat, kidney	sc, 3 nmol/kg, 4 h, ex vivo		tissue uptake	1.39 %ID/g
COc1ccc([C@H]2c3[nH]c4ccc(Cl)cc4c3CCN2C(=O)Oc2ccc(Cl)cc2)cc1	HUVEC and Th2 blast co-culture	BioMAP /TH2, measured: soluble IL-17		0.1 µM		inhibition	23%
CCN(CC)c1ccc(C=NNC(=O)CSc2nc3ccccc3c(=O)n2Cc2ccc(S(N)(=O)=O)cc2)c(O)c1	NCI-H322M	NCI five-dose screen				CC50	> 100000 nM
Nc1ncc(-c2nc(N3CCOCC3)nc(N3CCOCC3)n2)c(C(F)F)n1	RKO			72 h		GI50	180 nM
COc1c(CCC[P+](c2ccccc2)(c2ccccc2)c2ccccc2)cc2c(c1OC)OCO2.[I-]	U-251	SRB				LC50	> -4 log M
CS(=O)(=O)c1ccc(-c2nnc(/C=C/c3nnc(-c4ccc(C#N)cc4)o3)n2-c2ccccc2Cl)nc1	Apc Q1405X mutant organoids	organoid viability, AlamarBlue	mouse small intestinal organoids	6 days, Tnks genotype Tnks+/-		Hill slope	-1.73

Structure (SMILES)	target or system	assay	system	conditions	how to read	measurement	result
O=S(=O)(c1ccc(O)cc1)c1ccc(O)cc1	HepG2 spheroids	Hoechst flow cytometry		1 µM, 96 h		G2 phase cells	15.4 ± 5.04%
COc1cc(Nc2ncc(F)c(Nc3ccc4c(n3)NC(=O)C(C)(C)O4)n2)cc(OC)c1OC	SLC5A7 (Homo sapiens, UniProt Q9GZV3)					IC50	> 10000 nM
COc1c(C)c2c(c(O)c1C/C=C(\C)CCC(=O)O)C(=O)OC2	blood cancer cell lines	cell proliferation		average over lines		IC50	339 nM
CC[C@H](C)[C@H](NC(=O)[C@H](C)NC(=O)[C@H](CCCCN)NC(=O)[C@H](CC(C)C)NC(=O)[C@H](C)NC(=O)[C@@H](NC(=O)[C@H](Cc1c[nH]cn1)NC(=O)[C@H](CC(C)C)NC(=O)[C@@H](NC(=O)[C@@H](NC(=O)[C@H](CCCCN)NC(=O)[C@H](C)NC(=O)[C@H](C)NC(=O)[C@H](CO)NC(=O)[C@H](CCCCN)NC(=O)[C@H](Cc1ccccc1)NC(=O)[C@@H](NC(=O)[C@H](CCCCN)NC(=O)[C@H](CC(C)C)NC(=O)[C@H](Cc1ccccc1)NC(=O)[C@H](CO)NC(=O)[C@H](CCCCN)NC(=O)[C@H](Cc1c[nH]c2ccccc12)NC(=O)[C@H](CCCCN)NC(C)=O)[C@@H](C)O)[C@@H](C)O)C(C)C)[C@@H](C)O)C(=O)N[C@@H](CO)C(=O)N[C@@H](CO)C(N)=O	Staphylococcus aureus		ATCC 29213			MIC range	8 µg/mL (≈ 2.73 µM)
N=C(N)NCCC[C@@H]1NC(=O)[C@H](CCCCNC(=O)c2ccc(CNC34CNCCNCC(N)(CNCCNC3)CNCCNC4)cc2)NC(=O)[C@@H](Cc2ccc(O)cc2)NC(=O)[C@H](CC(=O)O)NC(=O)CNC1=O [copper-64 labelled]		microPET imaging	athymic nude mice, male, PC-3 xenograft, PC-3 tumour	intravenous, 0.2 nmol, 7.4 MBq, 24 h		tumour uptake	0.5 ± 0.08 %ID/g
C[C@]12CC[C@H](O)C[C@H]1CC[C@@H]1[C@@H]2C[C@@H](O)[C@]2(C)[C@@H](C3=CC(=O)OC3)CC[C@]12O	human iPSC-derived cardiomyocytes	MyBP-C/MYH ratio, plate-normalised SD score		concentration not given, primary screen	direction not given	activity score	6.8
Cn1cncc1C1=CN(c2ncnc3[nH]cnc23)CCS1	NCI-H322M			lung cancer		CC50	> 200000 nM
C[C@H]1CN(c2n[nH]c3nc(N[C@H]4CC[C@H](NS(=O)(=O)CCC(F)(F)F)CC4)ncc23)CCO1	Stalled ribosome sensor GCN1 (Homo sapiens, UniProt Q92616)	Kinobeads competition, measured: GCN1L1		0.8 µM, unit not given	relative to: vehicle	remaining binding	1.08
CC1=CC(=O)c2c(O)cccc2C1=O	human iPSC-derived cardiomyocytes	MyBP-C/MYH ratio, plate-normalised SD score		concentration not given, primary screen	direction not given	activity score	3.9
CC(C)N1CCC(NC2CCN(c3cccc(-c4cc5cc(F)ccc5[nH]4)c3)CC2)CC1	HCC 2998					GI50	1790 nM
C[C@H]1O[C@@H](O[C@H]2CC[C@@]3(C)[C@@H](CC[C@]4(C)[C@@H]3C=C[C@]35OC[C@@]6(CCC(C)(C)C[C@H]63)[C@@H](O)C[C@]54C)[C@]2(C)CO)[C@H](O)[C@@H](O[C@@H]2O[C@H](CO)[C@@H](O)[C@H](O)[C@H]2O)[C@H]1O		histology	AAV8 empty vector mice, liver	dose not given, high dose, normal diet		Oil Red O area	0.0444% and 0.0396% and 0.0378%
C[C@]12CC[C@H](O)C[C@H]1CC[C@@H]1[C@@H]2CC[C@]2(C)[C@@H](c3ccc(=O)oc3)CC[C@]12O	MCF7	RT-qPCR, measured: SIAH2		20 nM, 48 h, without estradiol, unit not given	relative to: untreated	mRNA level	0.497 and 0.606 and 0.45
Cc1sc2c(c1C)C(c1ccc(Cl)cc1)=N[C@@H](CC(N)=O)c1nnc(C)n1-2	HBL-1			0.5 µM, 120 h		viability	21%
C[C@@H](O)[C@@H](CO)NC(=O)[C@@H](CCCNC(=N)N)NC(=O)[C@@H]1CCCN1C(=O)[C@@H]1CSSC[C@H](NC(=O)[C@H](Cc2ccccc2)NC(=O)CN2CCN(CC(=O)O)CCN(CC(=O)O)CCN(CC(=O)O)CC2)C(=O)N[C@@H](Cc2ccc(O)cc2)C(=O)N[C@@H](Cc2ccccc2)C(=O)N[C@@H](CCC(N)=O)C(=O)N[C@@H](CC(N)=O)C(=O)N1 [gallium-68 labelled]			healthy Wistar rat, brain	intravenous, 8 MBq, 30 min, individual animals		tissue uptake	0.04 %ID/g
CC1=C(O)C(=O)C=C2C1=CC=C1[C@@]2(C)CC[C@@]2(C)[C@@H]3C[C@](C)(C(=O)O)CC[C@]3(C)CC[C@]12C	HepG2	cell viability, CCK-8		4 µM	higher = more viable cells	optical density	0.301 a.u. and 0.338 a.u. and 0.472 a.u. and 0.323 a.u. and 0.261 a.u.
CC[C@H](C)[C@@H]1NC(=O)[C@@H]2CCCN2C(=O)[C@H](CC(C)C)NC(=O)[C@H](CC(C)C)NC(=O)CNC(=O)[C@@H](NC(=O)[C@@H](NC(=O)[C@H](CC(=O)O)NC(=O)CNC(=O)[C@@H](NC(=O)[C@H](C)NC(=O)CNC(=O)[C@H](CCCCN)NC(=O)[C@H](CC(C)C)NC(=O)[C@H](CC(C)C)NC(=O)[C@H](CCCCN)NC(=O)CNC(=O)[C@@H](NC(=O)[C@@H](N)CC(C)C)C(C)C)C(C)C)C(C)C)CSSC[C@@H](C(=O)O)NC1=O		RNA-seq, measured: Pgf mRNA	mouse traumatic brain injury, frontal cortex and hippocampus	dose not given	relative to: TBI plus compound vs TBI	log2 fold change	-1.78
O=C1N(Cc2ccccc2Cl)c2ccccc2C12NN=C(c1ccccc1)S2 (stereo not shown)	MDA-MB-468	gene expression array, measured: MT1E mRNA		10 µM, 12 h	relative to: untreated, down	fold change	3.25
Cc1cnc2ccc3c(nc(N)n3C)c2n1	BALB/c 3T3			10 µM	relative to: solvent control	relative colony forming efficiency	97 ± 4%
CC1=C(O)C(=O)C=C2C1=CC=C1[C@@]2(C)CC[C@@]2(C)[C@@H]3C[C@](C)(C(=O)O)CC[C@]3(C)CC[C@]12C	human iPSC-derived cardiomyocytes	MyBP-C/MYH ratio, plate-normalised SD score		concentration not given, primary screen	direction not given	activity score	8.6
COc1cc2c(Oc3ccc4[nH]c(C)cc4c3F)ccnc2cc1OCC1(N)CC1			paediatric recurrent refractory sarcoma	8 mg/kg		grade 3 Appendicitis	0%
